Experimental data pooled from the literature.
Protocols differ between the studies behind these lines. ± marks the error that the study gave.
DPP4: Dipeptidyl peptidase 4 (DPP4, Homo sapiens, UniProt P27487)
Sequence of UniProt P27487 (whole entry, looked up): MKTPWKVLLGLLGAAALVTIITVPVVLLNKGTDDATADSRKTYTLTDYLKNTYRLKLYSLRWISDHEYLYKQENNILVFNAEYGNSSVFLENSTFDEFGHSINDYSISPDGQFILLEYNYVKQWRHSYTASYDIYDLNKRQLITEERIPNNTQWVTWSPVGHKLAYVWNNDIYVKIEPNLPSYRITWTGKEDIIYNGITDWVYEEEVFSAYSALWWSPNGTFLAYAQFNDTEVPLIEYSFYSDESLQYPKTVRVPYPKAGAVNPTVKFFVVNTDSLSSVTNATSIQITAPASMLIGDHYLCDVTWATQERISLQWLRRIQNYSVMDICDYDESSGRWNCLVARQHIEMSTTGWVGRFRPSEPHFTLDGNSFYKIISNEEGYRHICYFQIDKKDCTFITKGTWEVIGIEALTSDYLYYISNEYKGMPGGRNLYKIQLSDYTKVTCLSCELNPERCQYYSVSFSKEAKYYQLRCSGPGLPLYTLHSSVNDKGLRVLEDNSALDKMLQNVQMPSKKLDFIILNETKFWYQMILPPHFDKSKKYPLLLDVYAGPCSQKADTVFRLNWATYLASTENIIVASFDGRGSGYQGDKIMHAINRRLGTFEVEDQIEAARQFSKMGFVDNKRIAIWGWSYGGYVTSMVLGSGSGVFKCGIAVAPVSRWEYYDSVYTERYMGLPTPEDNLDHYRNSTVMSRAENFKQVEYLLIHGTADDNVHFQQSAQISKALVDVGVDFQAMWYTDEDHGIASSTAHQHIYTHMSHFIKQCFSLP
CYP2C19: Cytochrome P450 2C19 (CYP2C19, Homo sapiens, UniProt P33261)
Sequence of UniProt P11509 (whole entry, looked up): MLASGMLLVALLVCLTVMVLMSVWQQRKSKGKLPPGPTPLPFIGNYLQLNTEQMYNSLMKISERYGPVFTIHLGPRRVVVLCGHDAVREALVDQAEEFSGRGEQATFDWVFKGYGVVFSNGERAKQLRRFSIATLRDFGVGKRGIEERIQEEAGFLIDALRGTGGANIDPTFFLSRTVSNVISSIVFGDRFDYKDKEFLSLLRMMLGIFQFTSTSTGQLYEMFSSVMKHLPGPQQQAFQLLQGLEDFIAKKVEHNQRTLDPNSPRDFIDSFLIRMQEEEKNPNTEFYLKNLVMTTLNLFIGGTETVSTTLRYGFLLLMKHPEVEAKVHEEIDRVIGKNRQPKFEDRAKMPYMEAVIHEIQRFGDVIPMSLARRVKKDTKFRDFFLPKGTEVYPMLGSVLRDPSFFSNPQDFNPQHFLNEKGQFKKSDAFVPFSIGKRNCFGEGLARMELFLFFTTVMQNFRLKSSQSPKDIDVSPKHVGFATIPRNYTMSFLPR
Sequence of UniProt P11712 (whole entry, looked up): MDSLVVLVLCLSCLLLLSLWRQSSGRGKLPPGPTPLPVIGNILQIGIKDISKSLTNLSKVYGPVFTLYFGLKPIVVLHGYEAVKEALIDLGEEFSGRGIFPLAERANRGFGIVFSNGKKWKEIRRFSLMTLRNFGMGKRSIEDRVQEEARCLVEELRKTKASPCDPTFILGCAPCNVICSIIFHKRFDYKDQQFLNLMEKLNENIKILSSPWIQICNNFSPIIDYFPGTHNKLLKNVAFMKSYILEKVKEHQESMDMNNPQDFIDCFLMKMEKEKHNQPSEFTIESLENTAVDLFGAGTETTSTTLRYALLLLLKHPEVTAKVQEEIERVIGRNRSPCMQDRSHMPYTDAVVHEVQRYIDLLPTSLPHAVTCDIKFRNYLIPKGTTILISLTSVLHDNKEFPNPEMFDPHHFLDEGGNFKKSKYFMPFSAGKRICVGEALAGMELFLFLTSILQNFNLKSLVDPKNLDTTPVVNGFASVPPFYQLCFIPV
Sequence of UniProt P10632 (whole entry, looked up): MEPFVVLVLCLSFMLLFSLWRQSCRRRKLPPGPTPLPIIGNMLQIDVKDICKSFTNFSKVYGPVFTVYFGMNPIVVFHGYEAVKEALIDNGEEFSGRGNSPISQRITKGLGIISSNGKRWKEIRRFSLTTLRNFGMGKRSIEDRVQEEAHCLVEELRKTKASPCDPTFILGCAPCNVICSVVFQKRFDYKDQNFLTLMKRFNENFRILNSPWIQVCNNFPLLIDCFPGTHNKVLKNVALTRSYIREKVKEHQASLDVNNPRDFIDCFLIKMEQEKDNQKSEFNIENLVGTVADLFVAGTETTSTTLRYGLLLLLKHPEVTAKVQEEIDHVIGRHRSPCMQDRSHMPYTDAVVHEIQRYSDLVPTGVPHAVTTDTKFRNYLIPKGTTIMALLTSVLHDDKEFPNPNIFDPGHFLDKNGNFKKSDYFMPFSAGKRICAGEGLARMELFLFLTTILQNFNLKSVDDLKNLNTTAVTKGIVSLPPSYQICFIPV
Sequence of UniProt P08183 (whole entry, looked up): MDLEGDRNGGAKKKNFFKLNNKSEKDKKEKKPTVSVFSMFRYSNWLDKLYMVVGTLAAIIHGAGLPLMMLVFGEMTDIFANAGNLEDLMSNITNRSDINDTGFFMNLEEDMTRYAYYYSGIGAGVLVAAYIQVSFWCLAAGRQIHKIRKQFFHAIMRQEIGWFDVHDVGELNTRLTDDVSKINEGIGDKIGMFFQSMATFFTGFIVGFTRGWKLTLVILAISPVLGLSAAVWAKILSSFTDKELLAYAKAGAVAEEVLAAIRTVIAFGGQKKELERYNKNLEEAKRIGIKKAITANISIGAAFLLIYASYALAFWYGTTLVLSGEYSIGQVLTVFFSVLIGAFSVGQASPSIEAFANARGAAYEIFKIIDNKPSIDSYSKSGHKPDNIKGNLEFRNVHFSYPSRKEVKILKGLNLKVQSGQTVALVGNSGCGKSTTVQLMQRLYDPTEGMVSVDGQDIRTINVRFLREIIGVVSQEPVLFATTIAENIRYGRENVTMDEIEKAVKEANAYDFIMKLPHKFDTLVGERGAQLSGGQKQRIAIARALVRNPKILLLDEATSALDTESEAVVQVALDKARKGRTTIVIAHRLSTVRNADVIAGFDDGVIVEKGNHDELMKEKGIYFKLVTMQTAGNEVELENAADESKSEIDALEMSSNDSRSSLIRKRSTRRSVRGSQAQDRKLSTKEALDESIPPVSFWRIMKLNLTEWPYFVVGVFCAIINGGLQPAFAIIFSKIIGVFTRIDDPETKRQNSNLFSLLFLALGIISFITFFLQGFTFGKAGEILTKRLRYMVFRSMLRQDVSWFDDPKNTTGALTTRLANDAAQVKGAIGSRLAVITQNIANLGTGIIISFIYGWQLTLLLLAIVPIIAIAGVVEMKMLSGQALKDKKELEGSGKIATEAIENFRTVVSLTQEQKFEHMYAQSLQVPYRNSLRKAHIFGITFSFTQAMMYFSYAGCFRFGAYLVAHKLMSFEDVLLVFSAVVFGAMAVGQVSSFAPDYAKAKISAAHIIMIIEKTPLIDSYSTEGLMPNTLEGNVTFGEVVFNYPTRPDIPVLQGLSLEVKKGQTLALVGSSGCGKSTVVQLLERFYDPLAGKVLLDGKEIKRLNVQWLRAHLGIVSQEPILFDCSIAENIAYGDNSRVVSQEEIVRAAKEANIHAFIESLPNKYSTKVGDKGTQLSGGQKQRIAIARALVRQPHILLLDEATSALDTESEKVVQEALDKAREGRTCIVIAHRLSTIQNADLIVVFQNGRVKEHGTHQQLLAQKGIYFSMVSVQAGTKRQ
Sequence of UniProt Q86VL8 (whole entry, looked up): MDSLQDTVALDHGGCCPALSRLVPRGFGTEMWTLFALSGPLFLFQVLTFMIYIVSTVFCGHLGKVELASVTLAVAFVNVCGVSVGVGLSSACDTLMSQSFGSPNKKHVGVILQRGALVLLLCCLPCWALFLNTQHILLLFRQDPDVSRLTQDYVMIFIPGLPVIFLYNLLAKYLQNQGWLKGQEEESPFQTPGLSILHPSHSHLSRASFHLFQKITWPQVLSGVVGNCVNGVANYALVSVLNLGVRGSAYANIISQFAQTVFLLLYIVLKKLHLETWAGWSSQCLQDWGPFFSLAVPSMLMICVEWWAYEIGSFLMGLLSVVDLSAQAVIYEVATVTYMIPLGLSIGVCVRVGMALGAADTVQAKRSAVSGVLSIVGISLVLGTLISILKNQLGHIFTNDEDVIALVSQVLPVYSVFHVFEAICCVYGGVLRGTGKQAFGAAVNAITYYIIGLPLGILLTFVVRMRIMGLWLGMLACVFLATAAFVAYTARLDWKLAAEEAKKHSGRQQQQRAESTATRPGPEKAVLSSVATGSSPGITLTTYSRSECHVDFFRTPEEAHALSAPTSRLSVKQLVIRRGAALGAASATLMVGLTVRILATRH

Compound	target	assay	system	setting	how to read	quantity	value
CC[C@H](C)[C@H](NC(=O)[C@H](Cc1ccccc1)NC(=O)[C@H](CCC(=O)O)NC(=O)[C@H](CCCCN)NC(=O)[C@H](C)NC(=O)[C@H](C)NC(=O)[C@H](CCC(N)=O)NC(=O)CNC(=O)[C@H](CCC(=O)O)NC(=O)[C@H](CC(C)C)NC(=O)[C@H](Cc1ccc(O)cc1)NC(=O)[C@H](CO)NC(=O)[C@H](CO)NC(=O)[C@@H](NC(=O)[C@H](CC(=O)O)NC(=O)[C@H](CO)NC(=O)[C@@H](NC(=O)[C@H](Cc1ccccc1)NC(=O)[C@@H](NC(=O)CNC(=O)N(CCC(=O)O)NC(=O)[C@H](C)NC(=O)N(N)Cc1c[nH]cn1)[C@@H](C)O)[C@@H](C)O)C(C)C)C(=O)N[C@@H](C)C(=O)N[C@@H](Cc1c[nH]c2ccccc12)C(=O)N[C@@H](CC(C)C)C(=O)N[C@H](C(=O)N[C@@H](CCCNC(=N)N)C(=O)NCC(=O)N[C@@H](CCCNC(=N)N)C(=O)NCC(=O)O)C(C)C	DPP4	HPLC-UV	Tris-HCl	0.1 mM, 1 h, pH 7.4, 37 °C, with: DPP4 16 nM	–	remaining peptide	100%
C[C@@H](c1ccc2nccn2c1)n1nnc2ncc(-c3cn[nH]c3)nc21	Cytochrome P450 2C8 (CYP2C8, Homo sapiens, UniProt P10632)	–	human liver microsomes	10 and 50 µM, 30 min preincubation, with: ± NADPH	–	time-dependent inhibition	< 20%
CNC(=O)C1CCCN(C(=O)C2CC3CCC2N3C(=O)[C@@H]2C[C@@H](O)CN2C(=O)NCc2cccc(Cl)c2F)C1 (mixture of isomers)	CYP3A4 (human)	inhibitor, time-dependent inhibition	–	0.617 µM, preincubated without NADPH, with: midazolam substrate	baseline: negative control	remaining activity	99.7%
C[C@H](NCc1ccc(-c2ccc(C(F)(F)F)cc2)cc1)C(N)=O	CYP2C19	P450-Glo luminescence	potassium phosphate buffer	10 µM, pH 7.4, isoform 2C19	–	inhibition	84%
CN[C@@H]1[C@H](O)[C@H](NC)[C@H]2O[C@]3(O)[C@H](O[C@@H]2[C@H]1O)O[C@H](C)C[C@H]3NC(=O)Cc1ccc(Cl)cn1	CYP2C19	–	–	10 µM	–	inhibition	-9%
Cc1cc(-c2ccc3ccccc3c2)nnc1NCCN1CCN(C)CC1	Cytochrome P450 2A6 (CYP2A6, Homo sapiens, UniProt P11509)	substrate	recombinant enzyme	1000 nM, 30 min	–	remaining compound	100%
CSc1nc2[nH]nc([N+](=O)[O-])c(=O)n2n1	SLC47A2 (Homo sapiens, UniProt Q86VL8)	transport, inhibitor	transiently transfected cells	100 µM, 10 (unit not given), with: thiamine	–	inhibition	30.3%
CCN(CC)CCOc1ccc(-c2nnn(Cc3ccc(OC)cc3)c2N)cc1	CYP2C19	CYP phenotyping	–	concentration not given	–	inhibition	1.4%
CC(=O)NCCCC[C@@H]1NC(=O)[C@H](Cc2c[nH]c3c(C)cccc23)NC(=O)[C@H]([C@@H](C)O)NC(=O)[C@H](CC(N)=O)NC(=O)[C@@H](NC(C)=O)C(C)(C)SSC(C)(C)[C@@H](C(=O)N[C@@H](Cc2ccc(OCCN)cc2)C(=O)N[C@@H](Cc2ccc3ccccc3c2)C(=O)NC2(C(=O)N[C@@H](CCC(=O)O)C(=O)N[C@@H](CC(N)=O)C(=O)N[C@@H](Cc3cccnc3)C(=O)N(C)CC(N)=O)CCOCC2)NC1=O	ABCB1 (Homo sapiens, UniProt P08183)	transport, inhibitor	LLC-PK1 expressing MDR1	3 µM, 90 min, with: [3H]digoxin	–	efflux ratio	16.6
CC[C@H](C)[C@H](NC(=O)[C@H](Cc1ccccc1)NC(=O)[C@H](CCC(=O)O)NC(=O)[C@H](CCCCN)NC(=O)[C@H](C)NC(=O)[C@H](C)NC(=O)[C@H](CCC(N)=O)NC(=O)CNC(=O)[C@H](CCC(=O)O)NC(=O)[C@H](CC(C)C)NC(=O)[C@H](Cc1ccc(O)cc1)NC(=O)[C@H](CO)NC(=O)[C@H](CO)NC(=O)[C@@H](NC(=O)[C@H](CC(=O)O)NC(=O)[C@H](CO)NC(=O)[C@@H](NC(=O)[C@H](Cc1ccccc1)NC(=O)[C@@H](NC(=O)CNC(=O)[C@H](CCC(=O)O)NC(=O)[C@H](C)NC(=O)[C@@H](N)Cc1c[nH]cn1)[C@@H](C)O)[C@@H](C)O)C(C)C)C(=O)N[C@@H](C)C(=O)N[C@@H](Cc1c[nH]c2ccccc12)C(=O)N[C@@H](CC(C)C)C(=O)N[C@H](C(=O)N[C@@H](CCCCN)C(=O)NCC(=O)N[C@@H](CCCNC(=N)N)C(=O)NCC(=O)N[C@@H](Cc1ccccc1)C(=O)N[C@@H](Cc1ccccc1)C(=O)NCC(=O)O)C(C)C	DPP-4 (recombinant)	substrate, LC-MS	–	500 µM, 1 h	–	remaining peptide	98%
O=C(CN1C(=O)C2(CCN(C(=O)c3ccc4[nH]ncc4c3)CC2)c2ccccc21)NCC(F)(F)F	Cytochrome P450 2C9 (CYP2C9, Homo sapiens, UniProt P11712)	enzyme activity, inhibitor	–	–	–	IC50	10 µM
CC[C@H](C)[C@H](NC(=O)[C@H](Cc1ccccc1)NC(=O)[C@H](CCC(=O)O)NC(=O)[C@H](CCCCN)NC(=O)[C@H](C)NC(=O)[C@H](C)NC(=O)[C@H](CCC(N)=O)NC(=O)CNC(=O)[C@H](CCC(=O)O)NC(=O)[C@H](CC(C)C)NC(=O)[C@H](Cc1ccc(O)cc1)NC(=O)[C@H](CO)NC(=O)[C@H](CO)NC(=O)[C@@H](NC(=O)[C@H](CC(=O)O)NC(=O)[C@H](CO)NC(=O)[C@@H](NC(=O)[C@H](Cc1ccccc1)NC(=O)[C@@H](NC(=O)CNC(=O)[C@H](CCC(=O)O)NC(=O)C(C)(C)NC(=O)N(N)Cc1c[nH]cn1)[C@@H](C)O)[C@@H](C)O)C(C)C)C(=O)N[C@@H](C)C(=O)N[C@@H](Cc1c[nH]c2ccccc12)C(=O)N[C@@H](CC(C)C)C(=O)N[C@H](C(=O)N[C@@H](CCCNC(=N)N)C(=O)NCC(=O)N[C@@H](CCCNC(=N)N)C(=O)NCC(=O)O)C(C)C	DPP4	HPLC-UV	Tris-HCl	0.1 mM, 4 h, pH 7.4, 37 °C, with: DPP4 16 nM	–	remaining peptide	100%
C[C@@H](c1ccc2nccn2c1)n1nnc2nc(O)c(-c3cnn(C)c3)nc21	human CYP3A4/5	inhibitor	pooled human liver microsomes	reversible inhibition, with: midazolam substrate	–	IC50	35 µM
